Results gathered from unrelated publications.
Parts stem from different laboratories: compare values within a part only. Changes are numbered by the printed parent chain.
Chain of UniProt P28223 (whole entry, looked up): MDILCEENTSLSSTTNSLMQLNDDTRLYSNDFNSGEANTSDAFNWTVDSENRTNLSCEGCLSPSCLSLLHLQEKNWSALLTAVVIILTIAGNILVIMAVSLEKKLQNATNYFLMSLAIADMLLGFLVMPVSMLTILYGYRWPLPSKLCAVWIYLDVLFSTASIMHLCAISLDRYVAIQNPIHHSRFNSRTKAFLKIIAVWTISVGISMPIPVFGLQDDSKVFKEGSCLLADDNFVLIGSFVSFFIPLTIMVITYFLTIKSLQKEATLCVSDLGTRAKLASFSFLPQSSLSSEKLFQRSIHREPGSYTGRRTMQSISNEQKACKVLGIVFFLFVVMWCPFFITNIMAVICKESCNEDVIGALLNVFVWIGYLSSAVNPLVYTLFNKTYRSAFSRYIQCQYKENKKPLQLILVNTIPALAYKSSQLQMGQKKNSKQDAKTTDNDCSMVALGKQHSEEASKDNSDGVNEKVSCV

Sample 1 — target: CCNB3, cyclin fold, Cln2 fusion (human); technique: yeast growth competition, sequencing; sample: yeast; setting: strong parent motif; reference: not given; direction: higher = stronger binding
Starting sequence: viral docking peptide; KGVKRKLFAEDSS; partner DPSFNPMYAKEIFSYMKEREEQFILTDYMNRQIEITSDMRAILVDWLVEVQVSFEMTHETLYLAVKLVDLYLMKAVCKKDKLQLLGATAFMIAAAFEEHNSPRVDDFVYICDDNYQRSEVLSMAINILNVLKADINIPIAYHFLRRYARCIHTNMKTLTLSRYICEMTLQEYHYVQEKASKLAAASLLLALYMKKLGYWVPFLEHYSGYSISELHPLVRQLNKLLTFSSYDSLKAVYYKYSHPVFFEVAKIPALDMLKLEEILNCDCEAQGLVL
Change	normalised enrichment score
KGVVRKLFAEDSS [K4V]	2.84
KGVKRKLFAHDSS [E10H]	1.45
KGVKRKLFAGDSS [E10G]	1.88
KGVKRQLFAEDSS [K6Q]	1.25
KGVKRKLFAEDYS [S12Y]	2.72
KGVKRKLFAEGSS [D11G]	2.45
KGVKRKLFAQDSS [E10Q]	1.6
KGRKRKLFAEDSS [V3R]	-0.0733
KGVKRKLFAEVSS [D11V]	2.03
KGVKRKLFAPDSS [E10P]	2.18
KGVKRKLFAEDNS [S12N]	3.24
KGVQRKLFAEDSS [K4Q]	1.03
KGVKRKQFAEDSS [L7Q]	0.217
KGVKCKLFAEDSS [R5C]	0.726
KGVKRKLKAEDSS [F8K]	0.223
KGTKRKLFAEDSS [V3T]	0.568
KGVKRKLRAEDSS [F8R]	0.0698
KGVKRKLFAEKSS [D11K]	1.79
KGVKRKLFAEDDS [S12D]	3.69
KGVKRKLFANDSS [E10N]	2.53
KGVKRKLFAEDMS [S12M]	2.72
KKVKRKLFAEDSS [G2K]	2.44
KGSKRKLFAEDSS [V3S]	0.132
KGVKRKLFAVDSS [E10V]	1.76
KGVKRKLAAEDSS [F8A]	0.383

Sample 2 — technique: protein binding microarray; molecule type: double-stranded DNA, one strand shown; sample: in vitro; tested at: not given; reference: not given; direction: higher = stronger binding
Target: Histone acetyltransferase KAT6A, winged helix 2, GST fusion (KAT6A, Homo sapiens, UniProt Q92794, residues 85-181)
Setting: 8-mer, flanks averaged, mean of 2 arrays, mostly near background
Target sequence (chain): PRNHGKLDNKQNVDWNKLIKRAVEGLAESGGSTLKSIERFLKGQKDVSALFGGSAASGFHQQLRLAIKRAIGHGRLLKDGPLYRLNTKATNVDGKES
Sequence	E-score
TCTATTAA	0.0703
CCTCCACA	0.08
AATCTAGA	-0.0876
GAGAGTAC	-0.00817
CCCTCTGA	0.207
GGTCTAAA	-0.00867
CCGCCCCG	0.357
ATCCTACG	-0.0797

Sample 3 — technique: RNA Bind-n-Seq; molecule type: RNA; sample: in vitro; tested at: 1 µM; setting: whole 134-nt RNA, ends assumed; together with: 150 mM KCl; reference: input library; direction: higher = stronger binding
Target: Ras GTPase-activating protein-binding protein 1, C-terminal RGG region (G3BP1, Homo sapiens, UniProt Q13283)
Chain of UniProt Q13283 (whole entry, looked up): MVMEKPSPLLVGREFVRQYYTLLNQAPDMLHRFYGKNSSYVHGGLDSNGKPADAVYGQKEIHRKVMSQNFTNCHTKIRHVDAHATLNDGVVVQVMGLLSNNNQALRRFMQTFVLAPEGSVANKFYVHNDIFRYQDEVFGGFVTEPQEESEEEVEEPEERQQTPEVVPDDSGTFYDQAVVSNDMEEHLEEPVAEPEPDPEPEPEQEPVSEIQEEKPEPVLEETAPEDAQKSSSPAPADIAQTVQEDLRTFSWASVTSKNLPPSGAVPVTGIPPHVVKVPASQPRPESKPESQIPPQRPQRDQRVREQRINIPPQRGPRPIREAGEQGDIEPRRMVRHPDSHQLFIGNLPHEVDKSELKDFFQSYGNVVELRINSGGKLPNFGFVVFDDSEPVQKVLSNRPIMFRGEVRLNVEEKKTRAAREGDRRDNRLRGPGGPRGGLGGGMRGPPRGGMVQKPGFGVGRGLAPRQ
Sequence	log2 enrichment
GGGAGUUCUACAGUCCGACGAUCACCAUGCAGGUGGGCAUCUUUGGGAAGUGGGGCAAGGGGGGGAUAGGGAGGGGGGUAAAACUUUGGGAACAGGUGGUCCCAGGUCGUUUCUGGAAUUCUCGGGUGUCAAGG	-1.37
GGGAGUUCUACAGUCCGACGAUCUGGGAGGUGGAUUUUGUUUAUUUUUUUAGCUCAUUUCAAGGGGUGGGAAUUUUUUUUUAAUAUGUGUCAUGAAUAAAGUUGUUUUUGAAAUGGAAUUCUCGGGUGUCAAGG	3.9
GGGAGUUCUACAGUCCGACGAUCUCCUGUGCUACACAUCGUAUGUACCGAAUCGGGCCCCCCGGGGCCCCCCGGCCCCCCGGGAAAGUAUUAUGUUACGCCGUUCGGAUCUGCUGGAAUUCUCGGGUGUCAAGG	-0.873
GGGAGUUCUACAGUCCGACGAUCAAGUCCUGUGCUACACAUCGUAUGUACCGAAUCGGUUUUGGGUUUUGGGUUUUGGGAAAGUAUUAUGUUACGCCGUUCGGAUCUGCACUUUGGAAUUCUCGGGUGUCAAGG	-1.29
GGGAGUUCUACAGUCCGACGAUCGUCCUGUGCUACACAUCGUAUGUACCGAAUCGGGUGGGUUUUUUUGGGUUUUUUUGGGAAAGUAUUAUGUUACGCCGUUCGGAUCUGCACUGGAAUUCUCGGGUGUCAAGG	-0.149
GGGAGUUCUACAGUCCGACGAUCACCAUGCAGGUGGGCAUCUUUGGGAAGUGGGGCAAGGGGGGGAUAGGGAGGGGGGUAACACUUUGGGAACAGGUAGUCCCAGGUCGUUUCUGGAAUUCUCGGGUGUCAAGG	2.46
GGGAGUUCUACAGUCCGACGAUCGUCCUGUGCUACACAUCGUAUGUACCGAAUCGGCCCCCCGGGCCCCCCGGGCCCCCCGGAAAGUAUUAUGUUACGCCGUUCGGAUCUGCAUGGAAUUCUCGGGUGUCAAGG	-1.28
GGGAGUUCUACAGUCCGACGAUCAGUCCUGUGCUACACAUCGUAUGUACCGAAUCGGGGAAAAAGGGGAGGGGUUUGGGGAAAGUAUUAUGUUACGCCGUUCGGAUCUGCACUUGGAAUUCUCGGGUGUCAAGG	1.34

Sample 4 — technique: DHFR PCA, deep sequencing; sample: yeast; together with: (+)-ABA 0 µM; reference: wild-type fitted maximum; direction: higher = stronger binding
Target: ABI1, truncated, D143A, DHFR fusion (Arabidopsis thaliana)
Setting: methotrexate growth selection, single substitutions
Starting sequence: PYL1, truncated, DHFR fusion (Arabidopsis thaliana); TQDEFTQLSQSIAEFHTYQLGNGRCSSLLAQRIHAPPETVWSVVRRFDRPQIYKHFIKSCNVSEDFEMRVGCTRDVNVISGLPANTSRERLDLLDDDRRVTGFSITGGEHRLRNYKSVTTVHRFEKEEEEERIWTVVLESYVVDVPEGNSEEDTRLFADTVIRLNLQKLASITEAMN; partner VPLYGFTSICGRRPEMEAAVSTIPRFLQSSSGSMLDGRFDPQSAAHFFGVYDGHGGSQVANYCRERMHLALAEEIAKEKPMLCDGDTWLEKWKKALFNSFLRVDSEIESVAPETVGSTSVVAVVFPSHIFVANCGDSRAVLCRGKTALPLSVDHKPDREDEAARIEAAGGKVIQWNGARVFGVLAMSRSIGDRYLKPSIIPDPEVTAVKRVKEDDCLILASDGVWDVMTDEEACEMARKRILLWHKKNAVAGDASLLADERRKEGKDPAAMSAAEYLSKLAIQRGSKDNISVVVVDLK
Change	relative binding score [%]
W134I	12
L94I	2.95
N85H	61.8
H16K	-1.85
T106W	-2.99
H122G	1.56
Y18C	-5
L164T	11.9

Mixed results
SMILES	target	observed	tested at	quantity	result
CN(C)[C@H]1CCN(c2cc(-c3ccccc3)nc3ccnn23)C1	5-hydroxytryptamine receptor 2A (HTR2A, Homo sapiens, UniProt P28223)	ligand displacement	10 µM	inhibition	23.5%

Repeated from above (sample 3):
Sequence	log2 enrichment
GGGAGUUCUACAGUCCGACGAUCACCAUGCAGGUGGGCAUCUUUGGGAAGUGGGGCAAGGGGGGGAUAGGGAGGGGGGUAACACUUUGGGAACAGGUAGUCCCAGGUCGUUUCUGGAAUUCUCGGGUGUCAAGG	2.46
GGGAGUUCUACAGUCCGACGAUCGUCCUGUGCUACACAUCGUAUGUACCGAAUCGGCCCCCCGGGCCCCCCGGGCCCCCCGGAAAGUAUUAUGUUACGCCGUUCGGAUCUGCAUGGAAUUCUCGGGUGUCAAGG	-1.28
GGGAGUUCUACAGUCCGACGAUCAAGUCCUGUGCUACACAUCGUAUGUACCGAAUCGGUUUUGGGUUUUGGGUUUUGGGAAAGUAUUAUGUUACGCCGUUCGGAUCUGCACUUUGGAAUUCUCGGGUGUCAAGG	-1.29
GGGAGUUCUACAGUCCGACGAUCACCAUGCAGGUGGGCAUCUUUGGGAAGUGGGGCAAGGGGGGGAUAGGGAGGGGGGUAAAACUUUGGGAACAGGUGGUCCCAGGUCGUUUCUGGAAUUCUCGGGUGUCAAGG	-1.37
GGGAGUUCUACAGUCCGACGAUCUCCUGUGCUACACAUCGUAUGUACCGAAUCGGGCCCCCCGGGGCCCCCCGGCCCCCCGGGAAAGUAUUAUGUUACGCCGUUCGGAUCUGCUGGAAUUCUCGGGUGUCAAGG	-0.873
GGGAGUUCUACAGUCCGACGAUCGUCCUGUGCUACACAUCGUAUGUACCGAAUCGGGUGGGUUUUUUUGGGUUUUUUUGGGAAAGUAUUAUGUUACGCCGUUCGGAUCUGCACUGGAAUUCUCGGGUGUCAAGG	-0.149
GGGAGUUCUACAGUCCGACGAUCAGUCCUGUGCUACACAUCGUAUGUACCGAAUCGGGGAAAAAGGGGAGGGGUUUGGGGAAAGUAUUAUGUUACGCCGUUCGGAUCUGCACUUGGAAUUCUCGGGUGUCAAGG	1.34
